Measurements collected from several papers.
Parts stem from different laboratories: compare values within a part only. Positions count from the first letter of the parent shown.

Sample 1
Target: CCNF, cyclin fold, Cln2 fusion (human)
Method: yeast growth competition, sequencing
Sample: yeast
Notes: strong parent motif
Relative to: not given
Direction: higher = stronger binding
Parent: ORC1 docking peptide (human); PRARKRLELGNLG
| Variant | normalised enrichment score |
| --- | --- |
| QRARKRLELGNLG [P1Q] | 3.61 |
| PRARTRLELGNLG [K5T] | 1.01 |
| SRARKRLELGNLG [P1S] | 2.85 |
| PRLRKRLELGNLG [A3L] | 1.02 |
| PRARKRLFLGNLG [E8F] | 5.11 |
| NRARKRLELGNLG [P1N] | 3.6 |
| PRPRKRLELGNLG [A3P] | 1.33 |
| PRDRKRLELGNLG [A3D] | 0.118 |
| PRARGRLELGNLG [K5G] | 2.05 |
| PRARKRLELPNLG [G10P] | 2.21 |
| PRARKRLELGNTG [L12T] | 2.86 |
| PRARKRLEMGNLG [L9M] | 4.17 |
| PRARKRLKLGNLG [E8K] | 0.997 |
| PRARKRLELGKLG [N11K] | 2.45 |

Sample 2
Target: TAR DNA-binding protein 43, full length, His tag (TARDBP, Homo sapiens, UniProt Q13148, residues 1-414)
Method: RNA Bind-n-Seq
Form: RNA
Sample: in vitro
Concentration: 20 nM
Notes: 6-mer, flanks averaged, single round
Added: 150 mM LiCl
Relative to: input library
Direction: higher = stronger binding
| Strand | 6-mer enrichment (R) |
| --- | --- |
| UUGCCC | 1.14 |
| CCAGCC | 0.972 |
| AUUCGC | 0.868 |
| CACUUA | 0.88 |
| CGGCCA | 0.902 |
| UCUGGU | 0.989 |
| GGCUUG | 1.05 |
| GAUAUC | 0.819 |
| CUUGCG | 0.962 |
| GCUCAG | 0.868 |
| CUAACU | 0.857 |
| UACUAG | 0.851 |
| CAUAGG | 0.884 |
| UGUCCA | 0.929 |
| UUGUCG | 1.04 |
| GUUUAU | 1.23 |
| GAACUA | 0.858 |

Sample 3
Target: RNA binding protein fox-1 homolog 2, RRM domain, GST-SBP tag (RBFOX2, Homo sapiens, UniProt O43251-10, residues 100-194)
Method: RNA Bind-n-Seq
Form: RNA
Sample: in vitro
Concentration: 365 nM
Notes: natural RNA segment, single round, ends assumed
Relative to: no-protein control
Direction: higher = stronger binding
Shared flanks, not repeated: GGGAGUUCUACAGUCCGACGAUC … UGGAAUUCUCGGGUGCCAA
Residues (chain): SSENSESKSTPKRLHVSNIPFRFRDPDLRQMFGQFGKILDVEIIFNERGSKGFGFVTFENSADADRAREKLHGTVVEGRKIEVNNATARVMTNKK
| Strand | RBNS enrichment (R) |
| --- | --- |
| UGCCAAAGCACUUAAAAUCUCCUUUAAAUUCUUACCAUAUGCUUACUUUUGUACUAAGUAAGUGCUCCCAAGUCUUUUACUUGCUCUUCACAGCAACCCUAAUAGGUAUC | 0.673 |
| AAGCUCCUCUGGUUUGUCUGGUAGGUGUAAUUACGCCUGGCGAGCCCUGGGCCCGGGUUGCUAAGCAUUAAAAGCUUGCCUUUCUCCCUGCCCUUGCUCUGUUUCUGCUC | 0.327 |
| UGCAUGCACAUGCUAUGUAUUGGGUCCCUCCAAGGAUGAACCCUCUCUUUGGCUUAGAAGGCACUCAGAGAAUAUGUGUUAUUCGUGCUCACGGAAAGUUUCUUACUCAU | 4.32 |
| GAUGGGCGCUGACCCCCUAUCCAGAAUCACAUGCACAAGUUUUUACCUAGCCAGUUGUUUCUGAGGACCAGGCAACUUUUGAACUCCUGUCUCUGUGAGAAUGUAUACUU | 0.437 |
| GUCUGUCUAGAGUGAAUACUUCACAGAUCUCAUUUAGGGAGAGCCUGGUCUAUGGACUAAGCUGAAUUUUCCCACAUAGAUUCUAAAAUUAAAUGUAUUAGUUGCUAAGU | 0.504 |
| CGGCUUUCUCCGAUGAAGACAUUAUAGACUUGAAGUAACAGAGUUGAAUCUCAUUUGCCAUCUUUAGUUUUCUUAUGGAGGUUUAUACUCUUUAAACAGUUCUGAUGUAA | 0.592 |
| AGCCUUCAUUUUUAACUCAAAUUGAUGCUCAGUAAAGGUCAAUGACAAUUUGUUCAAGGAAGUUCAUCUAAAAUAAUCUGGAGGCCUUGAAAAUGAUCCCUCUAAAAUGC | 0.765 |
| AGUGGCGGUGGUGCGUAGAACAUUAUGCUAAGGCCCAGAACUGAUCAGAGAAUUUGUUCACCACCGUCUCCAGGCAGCAACGCCAAGGGCAAGUCUGAUCUCAGCACCCA | 0.427 |
| AAGAAGCAGACUCAAUUCGAGAAUUAAAUGUGUCUGUCAUUGUGUUGAAUUUUGAUUUGUCCUUGGUGGACAACUGGCUUUACCCAGUGAAGAGGGCCAGGACAGAUUGG | 0.393 |
| CAGCCUGAGGGUGAAGAAAACCACAUCACCCUGCCUUUAUGUGCUGAGGCACAUUCCUGUCUCCCAUCCUCCCUCCCAUUCAUGUCUGCAACCCCCUCGCCCCAGCAGCA | 1.83 |
| UCUAAGUCGGCUGUUUGGGUUGAGGAGGAGAGAACCCGAGGAAAUGACCAUGCUCUGGGGACAGGGGUACCUUAGAUUCUCUGUCUAUUUUUCCUCUAGCAAGCCAGCUG | 0.74 |
| UGUACAUCAGACAGAAGGGUAAUGCGUGCAGUUCCUGCUGCCUGCAGGCAGACGAGGCCUUUGCUUUACAGCACUGUAUGUGUUGCACGAUGGAUCCGUGACAGCACUUU | 1.98 |

Sample 4
Target: Histone acetyltransferase KAT6A, winged helix 2, GST fusion (KAT6A, Homo sapiens, UniProt Q92794, residues 85-181)
Method: protein binding microarray
Form: double-stranded DNA, one strand shown
Sample: in vitro
Concentration: not given
Notes: 8-mer, flanks averaged, mean of 2 arrays, mostly near background
Relative to: not given
Direction: higher = stronger binding
Construct (chain): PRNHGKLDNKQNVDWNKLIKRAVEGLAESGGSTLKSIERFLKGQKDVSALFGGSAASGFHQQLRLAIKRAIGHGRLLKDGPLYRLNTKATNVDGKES
| Strand | E-score |
| --- | --- |
| GGTTTTAC | -0.158 |
| AAGCTCAT | -0.0664 |
| GCGAGTGA | 0.188 |
| CCTGGCGC | 0.244 |
| GTTGTTTA | -0.0477 |
| CTTGAAGA | -0.0735 |
| AGCTGCAC | 0.0114 |
| ATGCAAGA | 0.0349 |
| ACCGCCTC | 0.186 |
| GCCGGTCC | -0.0265 |
| CGAAGCAG | 0.0883 |
| AGATAGAA | -0.102 |
| AGGCTCTG | -0.0175 |
| CTCGGCAG | 0.164 |
| ACATAACA | -0.0316 |
| GGACCGCC | 0.103 |
| CACTTCCA | -0.0806 |
| GGAACTGA | -0.0819 |
| CCAGGTCA | -0.103 |
| ATACCGCA | 0.0378 |
| CCAGGCCC | 0.0459 |
| AATTAGTG | 0.0429 |
| AACTGGAC | -0.094 |
| AGGGCCAC | 0.0655 |
| ACCTACAT | -0.197 |

Sample 5
Target: Ras GTPase-activating protein-binding protein 1, full length (G3BP1, Homo sapiens, UniProt Q13283)
UniProt Q13283, sequence (whole entry, looked up): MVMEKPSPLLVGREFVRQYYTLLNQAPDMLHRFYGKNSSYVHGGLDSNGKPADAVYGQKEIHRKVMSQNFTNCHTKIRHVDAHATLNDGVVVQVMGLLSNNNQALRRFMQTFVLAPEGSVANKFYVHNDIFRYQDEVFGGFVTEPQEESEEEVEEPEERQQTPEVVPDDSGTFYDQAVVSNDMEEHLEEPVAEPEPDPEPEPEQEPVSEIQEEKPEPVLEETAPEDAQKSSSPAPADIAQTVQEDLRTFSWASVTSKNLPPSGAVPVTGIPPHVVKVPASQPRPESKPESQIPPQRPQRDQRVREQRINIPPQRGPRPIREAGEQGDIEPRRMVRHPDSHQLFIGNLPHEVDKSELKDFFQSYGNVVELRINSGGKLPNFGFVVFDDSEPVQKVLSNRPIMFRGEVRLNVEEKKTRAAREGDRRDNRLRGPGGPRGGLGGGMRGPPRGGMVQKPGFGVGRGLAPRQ
Method: RNA Bind-n-Seq
Form: RNA
Sample: in vitro
Concentration: 200 nM
Notes: whole 134-nt RNA, ends assumed
Added: 150 mM KCl
Relative to: input library
Direction: higher = stronger binding
Shared flanks, not repeated: GGGAGUUCUACAGUCCGACGAUC … UGGAAUUCUCGGGUGUCAAGG
| Strand | log2 enrichment |
| --- | --- |
| UUUUCAAGGGGGCCCCAACUGGGGCCGCCUUGUAGCCUUCUUUGUCUUUGGGGCUGCACUGUGUGCUGAGAGUGUCAACAAGGAGAUGGA | -1.04 |
| CCUCAAGUCCUGUGCUACACAUCGUAUGUACCGAAUCGGGUGGGUGGGGUGGAAAGUAUUAUGUUACGCCGUUCGGAUCUGCACUUCCAG | 1.24 |
| UGGCCCUGGUGGCAUGCGGGGUGGAAGAGGUGGCCUCAUGGAUCGUGGUGGUCCCGGUGGAAUGUUCAGAGGUGGCCGUGGUGGAGACAG | 0.0824 |
| UUAUUGAACUGACAAGGUCCUCCCUGUGUUGUAGCAAGGACCAGACUGGCUUGAGCUCUCUGAGAUGACCGAGCAGCCAGACUAUGACCU | 1.11 |
| UCCUGUGCUACACAUCGUAUGUACCGAAUCGGCCCCCCGGGGCCCCCCGGGCCCCCCGGGAAAGUAUUAUGUUACGCCGUUCGGAUCUGC | -0.8 |
| UAACUUUAGAGGAGGAUCUGAUGGAUAUGGCAGUGGACGUGGAUUUGGGGAUGGCUAUAAUGUGUAUGGAGGAGGACCUGGAGGUGGCAA | 0.229 |
| GCCAUGCAGGUGGGCAUCUUUGGGAAGUGGGGCAAGGGGGGGAUAGGGAGGGGGGUAACACUUUGGGAACAGGUGGUCCCAGGUCGUUUC | 1.32 |
| CUCAAGUCCUGUGCUACACAUCGUAUGUACCGAAUCGGAGGAGGUUUUUUUGGAAAGUAUUAUGUUACGCCGUUCGGAUCUGCACUUCCA | -0.391 |
| CUCAAGUCCUGUGCUACACAUCGUAUGUACCGAAUCGGGUUUGGGUGGGUGGGAAAGUAUUAUGUUACGCCGUUCGGAUCUGCACUUCCA | 1.33 |
| CAAGUCCUGUGCUACACAUCGUAUGUACCGAAUCGGGAAAGGGAAAGGAAAGGGGAAAGUAUUAUGUUACGCCGUUCGGAUCUGCACUUC | 0.17 |
| ACCAUGCAGGUGGGCAUCUUUGGGAAGUGGGGCAAGGGGGGGAUAGGGAGGGGGGUAACACUUUGGGAACAGGUGAUCCCAGGUCGUUUC | 1.53 |
| UUAGUGAAUGUAUAGAAGGAGUAAAGGUAGAGCACAAUCCUGACCUGUCAGUUACUGUCAGCACCAAAAAAUCCCACCAGACAUGGACCU | -0.14 |
| GUCCUGUGCUACACAUCGUAUGUACCGAAUCAAAUUUUUUUAAAUUUUUAAAUUUAAAAAAGUAUUAUGUUACGCCGUUCGGAUCUGCAC | -1.58 |
| AGUCCUGUGCUACACAUCGUAUGUACCGAAUCAAACCCAAAUUUUUUUAAAUUUAAAAAAGUAUUAUGUUACGCCGUUCGGAUCUGCACU | -0.418 |

Excerpt of the above (sample 1):
| Variant | normalised enrichment score |
| --- | --- |
| PRDRKRLELGNLG [A3D] | 0.118 |
| QRARKRLELGNLG [P1Q] | 3.61 |
| PRARKRLELGKLG [N11K] | 2.45 |
| SRARKRLELGNLG [P1S] | 2.85 |
| PRARKRLKLGNLG [E8K] | 0.997 |
| NRARKRLELGNLG [P1N] | 3.6 |
| PRARKRLEMGNLG [L9M] | 4.17 |
| PRARKRLELGNTG [L12T] | 2.86 |
| PRARGRLELGNLG [K5G] | 2.05 |
| PRARKRLELPNLG [G10P] | 2.21 |
| PRARTRLELGNLG [K5T] | 1.01 |
| PRLRKRLELGNLG [A3L] | 1.02 |
| PRARKRLFLGNLG [E8F] | 5.11 |
| PRPRKRLELGNLG [A3P] | 1.33 |
